Measurements of several laboratories.
A part holds a random share of what one study measured. Positions count from the first letter of the parent shown.

Series 1 — target: CCND1, cyclin fold, Cln2 fusion (human); technique: yeast growth competition, sequencing; matrix: yeast; notes: weak parent motif; relative to: not given; reading: higher = stronger binding
Starting sequence: SLBP docking peptide (human); ARYKRKLLINDFG
Variant	normalised enrichment score
ARIKRKLLINDFG [Y3I]	0.152
AWYKRKLLINDFG [R2W]	0.678
ARYKRKLLINLFG [D11L]	0.946
ARYKRKLNINDFG [L8N]	-0.0175
AQYKRKLLINDFG [R2Q]	0.996
ARRKRKLLINDFG [Y3R]	-0.339
ARYKRKLLINEFG [D11E]	0.00169
AGYKRKLLINDFG [R2G]	0.444
ARGKRKLLINDFG [Y3G]	-0.196
ARYKRKLLINNFG [D11N]	-0.242
ARYKRKLLINKFG [D11K]	0.345

Series 2 — technique: protein binding microarray; molecule type: double-stranded DNA, one strand shown; matrix: in vitro; tested at: not given; relative to: not given; reading: higher = stronger binding
Target: Histone acetyltransferase KAT6A, winged helix 2, GST fusion (KAT6A, Homo sapiens, UniProt Q92794, residues 85-181)
Notes: 8-mer, flanks averaged, mean of 2 arrays, mostly near background
Residues (chain): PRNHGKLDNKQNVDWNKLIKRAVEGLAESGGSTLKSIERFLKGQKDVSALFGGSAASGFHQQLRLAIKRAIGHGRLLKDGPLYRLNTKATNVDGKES
Oligonucleotide	E-score
ATCAACAT	0.0365
AAGCGGCT	0.0763
CTTCTCAC	-0.0393
AAACAATG	-0.0335
CACTCCTC	-0.00938
CGCGCCCC	0.215
ATTACGTC	-0.163
GCATAAAC	0.0599

Series 3 — target: XBP1, bZIP domain (human); technique: DHFR protein complementation; matrix: yeast; relative to: wild-type JUN-FOS pair; reading: higher = stronger binding
Notes: single substitutions, most at no-binding floor
Starting sequence: JUN, bZIP domain (human); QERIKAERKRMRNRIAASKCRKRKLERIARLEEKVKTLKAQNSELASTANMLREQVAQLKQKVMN; partner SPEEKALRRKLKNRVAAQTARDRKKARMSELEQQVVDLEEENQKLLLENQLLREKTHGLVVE
Variant	binding fitness
V56S	-1.18 natural log
A49N	0.114 natural log
Q41L	-0.776 natural log
S43Y	-0.804 natural log
V35T	-1.53 natural log
E32N	-1.41 natural log

Other studies, line by line
Molecule	target	test	system	conditions	how to read	endpoint	result
PhoQ, residues 284 288 289 292 302 303 AANNSF	PhoP, residues 12 14 15 18 19 AWHSL (Escherichia coli, UniProt P23836)	Sort-seq, item: YFP reporter	E. coli	PhoQ-PhoP variant library, added: 10 µM Mg2+	relative to: high Mg2+ state, higher = stronger signaling	fold induction	1.15

Excerpt of the above (series 1):
Variant	normalised enrichment score
ARYKRKLLINNFG [D11N]	-0.242
ARRKRKLLINDFG [Y3R]	-0.339
